Results from different studies.
Lines come from different studies, so protocols differ. Numbers after ± are the reported error. Values after ≈ are worked out from the molar mass of the structure shown.

Under “α4β7+ CCR9− cells”, `CC[C@H](C)[C@H](NC(=O)[C@@H](NC(=O)[C@H](CC(=O)O)NC(C)=O)[C@@H](C)O)C(=O)N[C@@H](CCCNC(=N)N)C(=O)N[C@@H](CC(C)C)C(=O)N[C@@H](CC(C)C)C(=O)N[C@@H](Cc1ccccc1)C(=O)N[C@@H](CCC(N)=O)C(=O)N[C@@H](CC(C)C)C(=O)N[C@@H](CCSC)C(=O)N[C@@H](CCCNC(=N)N)C(=O)N1CCC[C@H]1C(=O)N1CCC[C@H]1C(=O)N[C@@H](CC(N)=O)C(=O)N[C@@H](CCSC)C(=O)N[C@H](C(=O)N1CCC[C@H]1C(=O)N[C@@H](C)C(=O)N[C@H](C(=O)N[C@@H](CC(N)=O)C(=O)N[C@@H](C)C(N)=O)C(C)C)[C@@H](C)O` is recorded as 63.6% (item: HA-15 tetramer; antigen-experienced tetramer+ CD4 T cells, healthy adults, HLA-DRB1*0101; dose not given).
`COc1cc(CNC(=O)C[C@H](C)CCC=C(C)C)ccc1OCc1cn(-c2ccc(F)cc2)nn1` has a growth of 89.3% (HL-60(TB); SRB; 10 µM, 48 h).
With `COc1cc(C(=O)NCCOCCOCCOCCNC(=O)c2ccc([18F])nc2)ccc1NC(=O)C1NC(CC(C)(C)C)C(C#N)(c2ccc(Cl)cc2F)C1c1cccc(Cl)c1F` (stereo not shown) the tracer uptake was 0.42 %ID/g (SJSA-1 tumour model; host not given, spleen; 2 h, tumour-bearing).
Under mRNA level, `CC(C)C[C@H](NC(=O)CNC(=O)[C@H](CO)NC(=O)[C@@H](NC(=O)[C@H](CC(C)C)NC(=O)[C@H](CCCCN)NC(=O)[C@H](CS)NC(=O)[C@H](CCCNC(=N)N)NC(=O)[C@H](CS)NC(=O)[C@@H](NC(=O)[C@H](CC(N)=O)NC(=O)[C@H](C)NC(=O)[C@H](CS)NC(=O)[C@H](CC(C)C)NC(=O)[C@H](CCCCN)NC(=O)[C@H](CCC(N)=O)NC(=O)[C@H](C)NC(=O)CNC(=O)[C@H](CCCNC(=N)N)NC(=O)[C@H](C)NC(=O)[C@H](CCCNC(=N)N)NC(=O)[C@H](CS)NC(=O)[C@H](CC(C)C)NC(=O)[C@H](CC(N)=O)NC(=O)[C@H](Cc1ccc(O)cc1)NC(=O)[C@H](CS)NC(=O)[C@H](CC(N)=O)NC(=O)[C@H](CCCNC(=N)N)NC(=O)CNC(=O)[C@H](CC(C)C)NC(=O)[C@@H](NC(=O)[C@H](CO)NC(=O)[C@H](CCCCN)NC(=O)[C@H](CS)NC(=O)[C@H](CS)NC(=O)[C@H](CO)NC(=O)[C@@H](N)CCCCN)[C@@H](C)O)C(C)C)[C@@H](C)O)C(=O)N[C@@H](CO)C(=O)N[C@@H](CS)C(=O)N1CCC[C@H]1C(=O)N[C@@H](CCCCN)C(=O)N[C@@H](CC(=O)O)C(=O)N[C@@H](Cc1ccccc1)C(=O)N1CCC[C@H]1C(=O)N[C@@H](CCCCN)C(=O)O` is recorded as “increased” (item: TaPR1; Triticum aestivum cv. Fielder; dose not given, combined sgB and sgD; reference: control).
With `COc1cc(CNC(=O)C[C@H](C)CCC=C(C)C)ccc1OCc1cn(-c2ccccc2Cl)nn1` the growth was 41.1% (HL-60(TB); SRB; 10 µM, 48 h).
The EC50 of `CC[N+](C)(CC)Cc1cc(Nc2ccnc3cc(Cl)ccc23)ccc1O` is reported as 30.2 ± 6.05 µM (West Nile virus; viral replication, Rluc reporter replicon; Vero WNV replicon cells; 24 h).
For `CCNC(=O)c1cc(Cc2ccccc2)cc2c1NCCC2NC(=O)C(N)Cc1c(C)cc(O)cc1C` (stereo not shown), antinociception read “inactive” (warm water tail withdrawal; male C57BL/6 mice; intraperitoneal, 10 mg/kg).
With `COC[C@@H](NC(C)=O)C(=O)NCc1ccc(N=[N+]=[N-])cc1` the inhibition was about 40% (CAD; sodium current; 100 µM, holding potential -80 mV; reference: DMSO).
`CC(C)[C@]12O[C@H]1[C@@H]1O[C@]13[C@]1(O[C@H]1C[C@H]1c4c(C(=O)c5ccccc5)oc(OC(=O)c5ccccc5)c4CC[C@@]13C)[C@@H]2O` gave an IC50 of 0.0152 µM (MV4-11; cell viability, Alamar Blue; 48 h).
With `CCCC/C=C/C(=O)N[C@@H](Cc1cc(F)cc(F)c1)C(=O)N[C@@H](COC(=O)[C@@H]1CCCN1C(C)=O)C(=O)OC` the remaining activity was about 55% (Mycobacterium tuberculosis ClpX; ATPase activity; 200 µM, DMSO 80%, together with: ClpP1P2; reference: basal activity).
`CCN(CC)Cc1cc(Nc2c(C3CCCC3)c(C)nc3cc(Cl)ccc23)ccc1O` gave an EC50 of 15.4 ± 1.31 µM (Dengue virus type 2; viral replication, Rluc reporter replicon; BHK-21 DENV2 replicon cells; 24 h).
For `CN[C@@H]1[C@H](O)[C@H](NC)[C@H]2O[C@]3(O)[C@H](O[C@@H]2[C@H]1O)O[C@H](C)C[C@@]3(O)CNCc1ccc(F)cc1`, the MIC was 128 µg/mL (≈ 271 µM) (Mycobacteroides abscessus; microbial growth; ATCC19977; 5 days).
Under “α4β7− CCR9− cells”, `CC[C@H](C)[C@H](NC(=O)[C@H](Cc1c[nH]c2ccccc12)NC(=O)[C@H](CCCNC(=N)N)NC(=O)[C@H](CCCCN)NC(=O)[C@H](CC(C)C)NC(=O)[C@H](CC(=O)O)NC(=O)[C@H](Cc1ccccc1)NC(=O)[C@H](C)NC(=O)[C@H](Cc1ccc(O)cc1)NC(=O)[C@H](CC(N)=O)NC(=O)[C@H](Cc1ccc(O)cc1)NC(=O)[C@H](CCCNC(=N)N)NC(=O)[C@H](Cc1ccc(O)cc1)NC(=O)[C@H](Cc1ccc(O)cc1)NC(=O)[C@@H](NC(=O)[C@H](CC(C)C)NC(=O)[C@H](C)NC(=O)[C@H](CC(N)=O)NC(=O)[C@H](Cc1ccc(O)cc1)NC(C)=O)[C@@H](C)CC)C(=O)N[C@@H](Cc1ccc(O)cc1)C(=O)N[C@@H](CC(C)C)C(N)=O` is recorded as 29.2% (item: HA-51 tetramer; antigen-experienced tetramer+ CD4 T cells, healthy adults, HLA-DRB1*0101; dose not given).
For `N=C(N)NCCC[C@@H]1NC(=O)[C@H](CCCCNC(=O)CC[C@H](NC(=O)CCOCCOCCOCCOCCNC(=O)CC[C@H](NC(=O)CN2CCN(CC(=O)O)CCN(CC(=O)O)CCN(CC(=O)O)CC2)C(=O)NCCOCCOCCOCCOCCC(=O)N[C@@H](CCC(=O)NCCCC[C@@H]2NC(=O)[C@@H](Cc3ccccc3)NC(=O)[C@H](CC(=O)O)NC(=O)CNC(=O)[C@H](CCCNC(=N)N)NC2=O)C(=O)NCCCC[C@@H]2NC(=O)[C@@H](Cc3ccccc3)NC(=O)[C@H](CC(=O)O)NC(=O)CNC(=O)[C@H](CCCNC(=N)N)NC2=O)C(=O)NCCCC[C@@H]2NC(=O)[C@@H](Cc3ccccc3)NC(=O)[C@H](CC(=O)O)NC(=O)CNC(=O)[C@H](CCCNC(=N)N)NC2=O)NC(=O)[C@@H](Cc2ccccc2)NC(=O)[C@H](CC(=O)O)NC(=O)CNC1=O` [indium-111 labelled], “tumour to tissue ratio” read 4.4 ± 2.74 (athymic nude mice, female, U-87 MG glioma xenograft, tumour and lungs; intravenous, 4 h; reference: tumour over lungs).
`CN(C)CC1CCCCC1(O)c1cccc(O)c1` (stereo not shown) has an efflux ratio of 3 (human P-glycoprotein; Caco-2 TC7 monolayer; 100 µM, 3 h, apical pH 6.8, basolateral pH 7.4, together with: cyclosporine A 10 µM; reference: B-to-A over A-to-B).
`CCCC[C@H](NC(=O)[C@@H]1CCCN1C(=O)CNC(=O)[C@H](CCCCN)NC(=O)[C@H](Cc1c[nH]cn1)NC(=O)[C@H](CO)NC(=O)[C@H](CC(C)C)NC(=O)[C@H](CCCNC(=N)N)NC(=O)[C@@H]1CCCN1C(=O)[C@H](CCCNC(=N)N)NC(=O)[C@@H]1CCC(=O)N1)C(=O)NC(C)(C)C(=O)N[C@@H](Cc1ccc(Br)cc1)C(=O)O`: infarct size “decreased” (wild-type mouse, ischaemia-reperfusion injury; dose not given).
`Oc1ccc(Nc2ccnc3cc(Cl)ccc23)cc1` gave an EC50 of over 100 µM (West Nile virus; viral replication, Rluc reporter replicon; Vero WNV replicon cells; 24 h).
`CCCC[C@H](NC(=O)CNC(=O)CNC(=O)c1ccc(NN)nc1)C(=O)N[C@H]1CC(=O)NCCCC[C@@H](C(N)=O)NC(=O)[C@H](Cc2c[nH]c3ccccc23)NC(=O)[C@H](CCCNC(=N)N)NC(=O)[C@@H](Cc2ccccc2)NC(=O)[C@H](Cc2c[nH]cn2)NC1=O` [technetium-99m labelled] has an uptake of 7.67 ± 1.99 %ID/g (C57 mouse, B16/F1 melanoma, kidneys; 2 h, together with: NDP-MSH 6.07 nmol blockade).
The licking time of `COC[C@@H](NC(C)=O)C(=O)NCc1ccc(OCc2ccccc2)cc1` is reported as 52% (formalin test, phase II; mouse; ip, 5.8 mg/kg; reference: vehicle).
The EC50 of `CCN(CC)Cc1cc(Nc2c(C)cnc3cc(Cl)ccc23)ccc1O` is reported as 21.1 ± 1.22 µM (Dengue virus type 2; viral replication, Rluc reporter replicon; BHK-21 DENV2 replicon cells; 24 h).
`N=C(N)NCCC[C@@H]1NC(=O)[C@H](CCCCNC(=O)CCOCCOCCOCCOCCNC(=O)CN2CCN(CC(=O)O)CCN(CC(=O)O)CCN(CC(=O)O)CC2)NC(=O)[C@@H](Cc2ccccc2)NC(=O)[C@H](CC(=O)O)NC(=O)CNC1=O` [indium-111 labelled]: “tumour to tissue ratio” 3.1 ± 0.47 (athymic nude mice, female, U-87 MG glioma xenograft, tumour and liver; intravenous, 24 h; reference: tumour over liver).
For `C[C@@H]1C[C@H](Nc2ccccc2)c2cc(F)ccc2N1C(=O)c1ccc(C#N)c(F)c1`, the mortality was 95% (Aedes albopictus; 1 µM, 72 h, second-instar larvae; reference: Abbott-corrected control).
`CC(C)CC(O)(CC(C)C)c1cn(C(=O)N2CCCC2)nn1` gave a protein level of 1.07 ± 0.04 (mouse T-cells; SILAC proteomics, item: OXSR1; 1 nM, 6 h, unit not given; reference: DMSO).
For `COc1ccc(-n2cc(C(=O)N3C[C@]4(OC(=O)c5ccccc5NC(C)=O)CC[C@H](OC)[C@@]56[C@@H]4C[C@@H]([C@@H]35)[C@@]3(O)C[C@H](OC)[C@H]4C[C@@H]6[C@]3(O)[C@H]4OC)nn2)cc1`, “COX-2 protein level” read “decreased” (RAW264.7; western blot; 30, 60 or 120 µM, 24 h, together with: LPS 1 µg/mL).
For `O=C1C[C@@H](c2ccc(O)cc2)Oc2cc(O)ccc21`, “hind paw volume” read 1.87 ± 0.06 mL (Sprague-Dawley rat, Freund's adjuvant arthritis; oral, 10 mg/kg, 6 h, together with: aconitine 1 mg/kg).
`COc1cc(CNC(=O)C[C@H](C)CCC=C(C)C)ccc1OCc1cn(-c2ccc(Br)cc2)nn1` has a growth of 88.4% (HL-60(TB); SRB; 10 µM, 48 h).
`O=C(O)CCn1c(=O)oc2cc(Cl)c(Cl)cc21`: “free tryptophan fraction” 60% (rat, plasma; dose not given).
For `CN[C@](C)(C[18F])C(=O)O`, the tracer uptake was 4.2 %ID/g (SK-OV-3 tumour model; host not given, liver; 15 min, tumour-bearing).
`CC[C@H](C)[C@H](NC(=O)[C@H](CC(C)C)NC(=O)CNC(=O)[C@H](CCCCN)NC(=O)[C@@H](NC(=O)[C@@H](NC(=O)[C@H](CC(N)=O)NC(=O)[C@H](Cc1c[nH]c2ccccc12)NC(=O)[C@@H](NC(=O)[C@H](CCC(=O)O)NC(=O)CNC(=O)[C@H](Cc1c[nH]c2ccccc12)NC(=O)[C@@H](N)CC(C)C)[C@@H](C)CC)[C@@H](C)O)C(C)C)C(N)=O` has an IC50 of 31.7 µg/mL (Herpes simplex virus 1; viral entry, plaque reduction; Vero, F; 37 °C).
`C=CCc1cc2c(c(OC)c1OC)OCO2` has a GI50 of over 250 µM (T47D; cell growth or viability; 72 h).
Under “cyclobutane pyrimidine dimer reduction”, `COc1cc(N2CCN(C)CC2)ccc1Nc1ncc2c(n1)N(C1CCC1)C(=O)N(c1c(C)cccc1C)C2` is recorded as 65.2% (healthy women skin type II, skin; dose not given).
`NNC(=O)/C=C/c1ccc(N)cc1` gave an LC50 of 169 µg/mL (≈ 954 µM) (Aedes aegypti; larval mortality; 48 h, larva).
For `Cc1ccc(/C=C/C(=O)O)cc1-c1cc2c(cc1C)C(C)(C)CCC2(C)C`, “log2 fold change” read -0.062 (RNA sequencing, item: Nmu; rat, brain; dose not given, 24 h; reference: vehicle).
For `CC/C=C\C/C=C\C/C=C\C/C=C\C/C=C\C/C=C\CCC(=O)Nc1ccn(C2OC(CO)C(O)C2(F)F)c(=O)n1` (stereo not shown), the CC50 was 45.1 µM (RXF 393; NCI60 screen).

Some of these lines once more:
`COc1cc(CNC(=O)C[C@H](C)CCC=C(C)C)ccc1OCc1cn(-c2ccc(Br)cc2)nn1` has a growth of 88.4% (HL-60(TB); SRB; 10 µM, 48 h).
`O=C(O)CCn1c(=O)oc2cc(Cl)c(Cl)cc21`: “free tryptophan fraction” 60% (rat, plasma; dose not given).
